# Results collected from several papers.
# Lines come from different studies, so protocols differ.
# Sequence of UniProt P42681 (whole entry, looked up): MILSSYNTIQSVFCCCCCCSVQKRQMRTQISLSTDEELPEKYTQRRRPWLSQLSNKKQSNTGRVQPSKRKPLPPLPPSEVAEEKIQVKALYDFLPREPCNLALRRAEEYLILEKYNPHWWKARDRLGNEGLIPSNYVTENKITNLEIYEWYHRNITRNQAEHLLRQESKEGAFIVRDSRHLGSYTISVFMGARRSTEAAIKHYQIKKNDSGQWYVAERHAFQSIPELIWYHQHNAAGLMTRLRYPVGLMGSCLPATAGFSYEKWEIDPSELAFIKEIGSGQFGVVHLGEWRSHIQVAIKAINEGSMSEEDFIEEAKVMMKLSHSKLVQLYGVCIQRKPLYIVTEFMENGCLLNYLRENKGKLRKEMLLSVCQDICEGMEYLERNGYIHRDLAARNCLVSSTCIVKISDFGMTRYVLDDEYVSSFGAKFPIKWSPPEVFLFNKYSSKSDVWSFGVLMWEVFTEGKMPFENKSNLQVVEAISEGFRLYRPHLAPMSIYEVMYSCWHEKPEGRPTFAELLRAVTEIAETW
# Sequence of UniProt P57059 (whole entry, looked up): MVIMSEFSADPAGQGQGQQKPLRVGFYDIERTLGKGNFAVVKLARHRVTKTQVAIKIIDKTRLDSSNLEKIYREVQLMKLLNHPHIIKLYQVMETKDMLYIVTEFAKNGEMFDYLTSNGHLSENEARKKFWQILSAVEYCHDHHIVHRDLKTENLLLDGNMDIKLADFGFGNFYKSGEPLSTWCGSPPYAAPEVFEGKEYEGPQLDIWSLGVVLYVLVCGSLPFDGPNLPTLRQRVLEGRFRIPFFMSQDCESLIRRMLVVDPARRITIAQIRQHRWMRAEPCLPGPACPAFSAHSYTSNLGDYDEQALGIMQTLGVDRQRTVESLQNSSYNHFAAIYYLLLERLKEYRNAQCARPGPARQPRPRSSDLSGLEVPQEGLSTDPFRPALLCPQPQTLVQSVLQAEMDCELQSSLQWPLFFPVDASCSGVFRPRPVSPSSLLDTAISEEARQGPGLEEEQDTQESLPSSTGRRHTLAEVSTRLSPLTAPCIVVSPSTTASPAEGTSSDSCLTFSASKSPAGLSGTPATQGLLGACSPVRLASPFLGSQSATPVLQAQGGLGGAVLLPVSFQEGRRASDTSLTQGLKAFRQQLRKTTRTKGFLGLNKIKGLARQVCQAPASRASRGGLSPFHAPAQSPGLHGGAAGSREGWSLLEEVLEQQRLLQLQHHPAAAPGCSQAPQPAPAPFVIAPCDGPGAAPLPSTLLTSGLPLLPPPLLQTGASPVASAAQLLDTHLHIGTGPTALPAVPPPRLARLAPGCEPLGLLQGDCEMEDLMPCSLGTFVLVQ
# Sequence of UniProt P50750 (whole entry, looked up): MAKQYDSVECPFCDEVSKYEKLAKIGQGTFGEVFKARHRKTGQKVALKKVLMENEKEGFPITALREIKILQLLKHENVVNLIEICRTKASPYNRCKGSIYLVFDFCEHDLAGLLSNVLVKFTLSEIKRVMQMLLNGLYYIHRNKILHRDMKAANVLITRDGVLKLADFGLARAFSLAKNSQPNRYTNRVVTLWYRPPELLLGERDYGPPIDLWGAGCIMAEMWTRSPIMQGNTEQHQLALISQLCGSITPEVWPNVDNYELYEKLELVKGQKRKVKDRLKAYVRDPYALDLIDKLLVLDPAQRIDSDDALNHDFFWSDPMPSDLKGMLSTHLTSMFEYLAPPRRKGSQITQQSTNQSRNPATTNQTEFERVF
# Sequence of UniProt Q13470 (whole entry, looked up): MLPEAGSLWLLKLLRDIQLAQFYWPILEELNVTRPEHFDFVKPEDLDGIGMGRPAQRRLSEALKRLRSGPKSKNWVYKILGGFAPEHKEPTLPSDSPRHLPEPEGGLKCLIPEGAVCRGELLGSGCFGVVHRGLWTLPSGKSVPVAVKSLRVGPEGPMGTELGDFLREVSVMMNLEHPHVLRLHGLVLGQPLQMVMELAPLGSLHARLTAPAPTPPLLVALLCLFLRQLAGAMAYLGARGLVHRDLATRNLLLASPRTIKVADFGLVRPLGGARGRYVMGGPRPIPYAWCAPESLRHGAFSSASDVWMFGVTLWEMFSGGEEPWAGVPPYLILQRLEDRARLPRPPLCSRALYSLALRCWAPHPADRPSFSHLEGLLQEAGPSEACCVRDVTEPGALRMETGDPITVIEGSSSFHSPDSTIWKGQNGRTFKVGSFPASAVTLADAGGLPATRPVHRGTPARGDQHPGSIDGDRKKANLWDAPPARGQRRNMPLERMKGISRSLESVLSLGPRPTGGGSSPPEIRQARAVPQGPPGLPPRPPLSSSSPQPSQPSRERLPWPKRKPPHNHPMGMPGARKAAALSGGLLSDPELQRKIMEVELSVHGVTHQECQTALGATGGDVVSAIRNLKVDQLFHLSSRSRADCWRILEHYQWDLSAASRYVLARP
# Sequence of UniProt O00418 (whole entry, looked up): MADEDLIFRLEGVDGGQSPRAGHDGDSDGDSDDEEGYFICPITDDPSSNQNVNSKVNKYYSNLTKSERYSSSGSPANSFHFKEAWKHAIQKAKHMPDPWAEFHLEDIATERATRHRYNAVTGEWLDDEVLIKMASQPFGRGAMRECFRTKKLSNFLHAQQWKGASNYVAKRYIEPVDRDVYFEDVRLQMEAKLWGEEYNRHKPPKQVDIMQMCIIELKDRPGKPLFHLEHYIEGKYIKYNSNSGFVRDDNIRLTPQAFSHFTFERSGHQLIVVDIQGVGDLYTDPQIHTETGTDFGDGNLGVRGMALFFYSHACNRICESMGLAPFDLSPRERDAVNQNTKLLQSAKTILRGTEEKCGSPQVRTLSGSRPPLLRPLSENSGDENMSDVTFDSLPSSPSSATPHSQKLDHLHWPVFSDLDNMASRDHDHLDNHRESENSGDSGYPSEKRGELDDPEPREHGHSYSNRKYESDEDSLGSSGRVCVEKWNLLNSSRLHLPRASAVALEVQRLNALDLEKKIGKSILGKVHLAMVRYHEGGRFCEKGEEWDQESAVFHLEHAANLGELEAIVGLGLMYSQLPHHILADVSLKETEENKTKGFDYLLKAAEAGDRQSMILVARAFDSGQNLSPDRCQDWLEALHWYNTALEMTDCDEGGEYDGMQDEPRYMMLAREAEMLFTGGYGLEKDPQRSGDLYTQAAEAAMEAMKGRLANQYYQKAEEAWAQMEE
SMILES,target,effect on,mode,technique,tested at,endpoint,value
CCCCC(=O)Nc1ccc(-c2ccc3ncn(CCC)c(=O)c3c2)cn1,"TNK1 (Homo sapiens, UniProt Q13470)",binding,,competition with immobilised ligand,0.5 µM,remaining binding,100%
C=CC(=O)N1CCC(COCC(=O)N2CCN(c3nc(-c4cnc(N)nc4C(F)F)nc(N4CCOC[C@@H]4C)n3)CC2)CC1,"TXK (Homo sapiens, UniProt P42681)",binding,,competition with immobilised ligand,1 µM,remaining binding,100%
COc1cc(-c2cncc3c2CN(C)Cc2cc(N4CCNCC4)ccc2-3)cc(OC)c1OC,"EEF2K (Homo sapiens, UniProt O00418)",enzyme activity,inhibitor,,1 µM,remaining activity,109%
Cc1cc([C@@H](C)Nc2ccccc2C(=O)O)c2nc(N3CCC(F)(F)CC3)c(C#N)c(=O)n2c1,"CDK9 (Homo sapiens, UniProt P50750)",binding,,competition with immobilised ligand,1 µM,remaining binding,100%
CNc1ncc2c(/C=C/C(=O)N3CCC(OC)CC3)nn(Cc3cccc(C(F)(F)F)c3)c2n1,"SIK1 (Homo sapiens, UniProt P57059)",enzyme activity,inhibitor,radiometric,1 µM,remaining activity,93%
